Measured values gathered from unrelated publications.
Parts stem from different laboratories: compare values within a part only. Changes are numbered by the printed parent chain.

Set 1 — target: CCNB2, cyclin fold, Cln2 fusion (human); technique: yeast growth competition, sequencing; sample: yeast; notes: weak parent motif; reference: not given; reading: higher = stronger binding
Parent: FOXM1 docking peptide (human); PHLARPIKVESPP
Under “normalised enrichment score”, `PHLARPIKVESAP [P12A]` is recorded as -1.83.
`AHLARPIKVESPP [P1A]`: “normalised enrichment score” -0.352.
Under “normalised enrichment score”, `PHLARAIKVESPP [P6A]` is recorded as -0.452.
`PHLARPIKVESPA [P13A]`: “normalised enrichment score” -0.705.
Under “normalised enrichment score”, `PHLARPIAVESPP [K8A]` is recorded as -0.268.
`PHLARPAKVESPP [I7A]`: “normalised enrichment score” -0.736.

Set 2 — technique: RNA Bind-n-Seq; form: RNA; sample: in vitro; concentration: not given; reference: input RNA pool; reading: higher = stronger binding
Target: RING finger protein unkempt homolog, zinc fingers 1-6, GST-SBP tag (UNK, Homo sapiens, UniProt Q9C0B0, residues 30-357)
Chain of UniProt Q9C0B0 (30-357, looked up): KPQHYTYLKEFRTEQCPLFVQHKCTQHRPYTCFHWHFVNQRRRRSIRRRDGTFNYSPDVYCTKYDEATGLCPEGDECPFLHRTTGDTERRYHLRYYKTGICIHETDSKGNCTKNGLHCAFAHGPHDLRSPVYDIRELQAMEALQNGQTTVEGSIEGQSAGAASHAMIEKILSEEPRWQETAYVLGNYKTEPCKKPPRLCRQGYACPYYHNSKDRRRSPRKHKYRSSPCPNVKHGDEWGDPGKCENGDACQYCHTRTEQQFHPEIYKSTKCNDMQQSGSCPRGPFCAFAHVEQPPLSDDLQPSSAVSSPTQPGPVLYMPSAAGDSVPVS
Notes: RNA with constant flanks, human-mouse chimeric sites, ends assumed
`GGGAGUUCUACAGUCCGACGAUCCUGUGUGGCUUACUAAAAUGGCUUGUAAGAACUGUCCUCCAAGCUGUAACCCAUGCUGUUAUUAUAGUUGCUGCAAAAUGUUCUUCCUGAUAUUGAUUUUAUUUGUUAACUGAAGGUCUCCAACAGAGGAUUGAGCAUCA` has a bound/input enrichment of 0.414 ratio.
With `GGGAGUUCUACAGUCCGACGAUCCUGAGGAAUACCACUGAGAGACCUUAAAAGAAUCAUUUGAGGGCUCUGUUCGUGCAAGAAUAGUCACUGAUCGGGAAACUGGUUCUUCCAAAGGGUUUGGUUUUGUAGACUUUAAUAGUGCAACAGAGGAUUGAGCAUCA` the bound/input enrichment was 0.769 ratio.
`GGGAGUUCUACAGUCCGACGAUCUCUUUAAAAAAAAAAUUACCUUUUCUGACAGUGCUUUCCCUCCCAUAGAUCCACGUUCAAGCUCAAAGAGCAAAGGCUCCGCAAACAGCUCAAACAUCUGAUGAAGAAAGAUUUCUGAGACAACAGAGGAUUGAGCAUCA` has a bound/input enrichment of 0.987 ratio.
The bound/input enrichment of `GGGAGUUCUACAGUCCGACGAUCUCCCUGUUGCUGAAUAAUGAUUUGUGAAAGAAGUUUUUCCAAGCUGUAACCCAUGCUGUUAUUAUAGUUGCUGCAAAAUGUUCUUCCUGAUAUUGAUUUUAUUUGUUAACUGAAGGUCUCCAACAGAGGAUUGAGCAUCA` is reported as 0.246 ratio.
`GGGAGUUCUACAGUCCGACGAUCCUGGCCUGGCCCUCCCCAGGGGCCUCCUUUCGUAUAGUCACUGCUUCUGCAUCAGAUAUUUUUAGCUGCAACUCCCUACUGGGUGGGGCACCCAUUUCAGGCAGAAGUUGGUGCCCCCCUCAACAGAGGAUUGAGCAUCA` gave a bound/input enrichment of 0.491 ratio.

Set 3 — technique: universal PBM; form: double-stranded DNA, one strand shown; sample: in vitro; concentration: not given; reading: higher = stronger binding
Target: Sal-like protein 4, full length isoform B (SALL4, Homo sapiens, UniProt Q9UJQ4-2, residues 1-616)
Notes: 8-mer, flanks averaged, mean of replicates
Residues (chain): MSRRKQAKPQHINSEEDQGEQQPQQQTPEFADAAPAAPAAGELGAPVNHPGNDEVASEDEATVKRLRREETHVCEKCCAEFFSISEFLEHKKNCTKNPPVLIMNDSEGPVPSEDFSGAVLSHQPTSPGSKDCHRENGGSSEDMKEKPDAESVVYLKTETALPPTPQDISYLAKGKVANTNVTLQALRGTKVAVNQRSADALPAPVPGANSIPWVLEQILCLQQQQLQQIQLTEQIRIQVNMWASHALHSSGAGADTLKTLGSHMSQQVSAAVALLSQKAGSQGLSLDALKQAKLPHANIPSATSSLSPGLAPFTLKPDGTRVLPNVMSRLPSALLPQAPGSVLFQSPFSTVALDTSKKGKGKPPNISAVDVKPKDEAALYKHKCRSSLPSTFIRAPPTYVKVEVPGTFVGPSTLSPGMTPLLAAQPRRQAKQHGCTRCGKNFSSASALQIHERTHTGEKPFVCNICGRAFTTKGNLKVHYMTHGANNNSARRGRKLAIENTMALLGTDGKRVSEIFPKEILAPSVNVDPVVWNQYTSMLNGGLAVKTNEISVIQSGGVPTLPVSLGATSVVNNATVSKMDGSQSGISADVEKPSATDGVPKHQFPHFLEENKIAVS
The E-score of `CGCTAACG` is reported as 0.0236.
For `GAGGGGAA`, the E-score was -0.14.
`TCAGAGAA` has an E-score of 0.0782.
For `GACCTACC`, the E-score was -0.229.
`GAGGCAGC` gave an E-score of -0.204.
The E-score of `CGCTAAAG` is reported as -0.013.
With `GATGTCGC` the E-score was -0.0757.
`GAGTTTAA` has an E-score of 0.105.
`AAACGCAG` has an E-score of -0.0915.
`AGCCCGGA` gave an E-score of -0.385.
With `AGCACAAT` the E-score was 0.144.
`AGTCTAGG` has an E-score of 0.0539.
`CTTTGGCA` has an E-score of -0.0711.
With `ATACAACA` the E-score was 0.276.
For `ACTCGTCT`, the E-score was -0.0175.
The E-score of `GCCGACGC` is reported as -0.225.
`CCGAATGC` has an E-score of -0.194.
For `GTTTTATA`, the E-score was 0.278.
`CATCTTTA` has an E-score of 0.14.
`ATCTTAGG` gave an E-score of -0.0598.
For `GAATATCC`, the E-score was 0.136.

Set 4 — technique: RNA Bind-n-Seq; form: RNA; sample: in vitro; concentration: 365 nM; reference: no-protein control; reading: higher = stronger binding
Target: RNA binding protein fox-1 homolog 2, RRM domain, GST-SBP tag (RBFOX2, Homo sapiens, UniProt O43251-10, residues 100-194)
Notes: natural RNA segment, single round, ends assumed
Target sequence (chain): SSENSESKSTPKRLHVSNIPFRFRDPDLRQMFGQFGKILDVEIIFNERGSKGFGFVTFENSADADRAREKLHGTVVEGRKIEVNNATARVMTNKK
For `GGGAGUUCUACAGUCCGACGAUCCCAAGCUGGCAUAAGAACCAAGACCUUCAAAGCAGCCUGAACUCAAGAUGACAUAUUUUACAAGUUAGAGUAAAGUCAAGAGCUGAGUUGUUUUGUCCAACUCAGGAUGGUGGAAUUCUCGGGUGCCAA`, “RBNS enrichment (R)” read 0.216.
`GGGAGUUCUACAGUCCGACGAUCAAUGGUCUUAACUGAAGUCCAACUUCAGUUACAAUUUUCAGAGGCUCGUUGUUUUCCCAAAGCUAAAUCUUUAUACUAAAUGCAAUACUGACUUUUUCUUAAGUAGCUAAUGGAAUUCUCGGGUGCCAA`: “RBNS enrichment (R)” 0.61.
Under “RBNS enrichment (R)”, `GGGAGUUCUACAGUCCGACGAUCCUCACUAGGUUGGCGGUACAUGUGGCCUUGUGCCCACCCCCAUCCCCAUUGUAGUCAGGUUCCCAGGAUGGAGACAGUGCUCCUGGGGUGGCCACUCAGUGAGGAGGCUCUGGAAUUCUCGGGUGCCAA` is recorded as 0.355.
`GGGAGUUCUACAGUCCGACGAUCGCCUGAGCAGUACCAAGGUCUUACUGUCUCUAUUCCUUUCUCCAUGGCCUGCUUUGCCUGGGUUGUGGGGAAGGAGGAGGAGGGGGACCCUGGGGGUGUAUUAUAUAUAGUGGAAUUCUCGGGUGCCAA` — result for “RBNS enrichment (R)”: 0.832.
`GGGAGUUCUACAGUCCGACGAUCAGAUAAUAAGAACAAUUGUCCCGUGAAUGAUUCUAUGAAGCUAUGCAUCUUAGACCUCUUGAGCUGUGAAUUAGCACUAUUUUCUAUGGUUACUUAUUAUCUAUUGUUUUUGGAAUUCUCGGGUGCCAA` — result for “RBNS enrichment (R)”: 6.86.
Under “RBNS enrichment (R)”, `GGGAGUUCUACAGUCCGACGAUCGAAGAUGUCUCAACCCUACAAAGACUAAAGUGCGCCAUCCCAGUGCCACAGAAGGCAGAGGGUAGUUGGUGGCCUUUUCAUCCACUUAACCCUGACACAGGCAGCUGCUGUGGAAUUCUCGGGUGCCAA` is recorded as 0.282.
Under “RBNS enrichment (R)”, `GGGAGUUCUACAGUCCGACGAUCCUCCUCUGGGUCACAUUGCUUCUUAUCCUGAACACUUGACACCUUGAGGGUAGAAUUUAGCGUUUGGUUUUUACCUCCUAGCAUAUGCUGUUUGGUAUGUGAGGGUUUCAUGGAAUUCUCGGGUGCCAA` is recorded as 0.261.
`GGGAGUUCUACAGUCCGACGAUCAGGGGAGGACUGGGGCUGGAAGUCCAGCACCCAGGGAAGAUCUGUCCUCCUGUUCUUGGGAAGCGUUGCCUGACGGCUUCUCGGCUCUACCCUCACCCUUCUGGCCAGGAUGGAAUUCUCGGGUGCCAA`: “RBNS enrichment (R)” 1.62.

Set 5 — technique: RNA Bind-n-Seq; form: RNA; sample: in vitro; concentration: 200 nM; notes: whole 134-nt RNA, ends assumed; with: 150 mM LiCl; reference: input library; reading: higher = stronger binding; library: 7-deaza-guanosine replaces G
Target: Ras GTPase-activating protein-binding protein 1, full length (G3BP1, Homo sapiens, UniProt Q13283)
Chain of UniProt Q13283 (whole entry, looked up): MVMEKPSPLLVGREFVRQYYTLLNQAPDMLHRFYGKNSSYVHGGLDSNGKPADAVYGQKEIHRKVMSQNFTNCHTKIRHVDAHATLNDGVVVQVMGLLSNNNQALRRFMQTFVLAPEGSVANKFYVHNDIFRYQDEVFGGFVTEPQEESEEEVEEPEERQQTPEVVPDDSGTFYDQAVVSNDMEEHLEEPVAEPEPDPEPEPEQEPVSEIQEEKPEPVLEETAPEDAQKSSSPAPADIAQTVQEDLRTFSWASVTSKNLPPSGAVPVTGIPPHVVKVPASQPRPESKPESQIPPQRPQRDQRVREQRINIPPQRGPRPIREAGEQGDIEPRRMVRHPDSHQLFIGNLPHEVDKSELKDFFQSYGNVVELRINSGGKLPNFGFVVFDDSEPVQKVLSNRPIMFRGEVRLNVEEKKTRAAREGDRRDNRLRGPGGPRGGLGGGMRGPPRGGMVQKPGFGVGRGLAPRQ
`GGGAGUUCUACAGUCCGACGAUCGCAGGAAGUAAAAACAAAUGGAAAUGCUUCGGAUAGUAGCAGGGGUGGGGGUUGCUAAGGAAAGGGUGGGAUGGGAGUGGGUAAAGAGUUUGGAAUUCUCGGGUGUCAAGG` gave a log2 enrichment of -0.113.
`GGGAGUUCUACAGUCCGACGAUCAGUCCUGUGCUACACAUCGUAUGUACCGAAUCAAACCCCCAAAUUUAAAUUUUUAAAAAAGUAUUAUGUUACGCCGUUCGGAUCUGCACUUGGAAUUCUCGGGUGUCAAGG` gave a log2 enrichment of 0.648.
`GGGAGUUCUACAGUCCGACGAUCGUCCUGUGCUACACAUCGUAUGUACCGAAUCGGGGCCCCGGGGCCCCGGGCCCCGGGGAAAGUAUUAUGUUACGCCGUUCGGAUCUGCACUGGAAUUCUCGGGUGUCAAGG` gave a log2 enrichment of -0.563.
For `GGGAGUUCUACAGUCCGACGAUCCACAGACAACACGCACCCACACAGACACAGAGGGAAGGGGUUGGGAUGGUGACAGGGUGCACAGCAGGGCGGGGUAGGACCCCAGCCCCUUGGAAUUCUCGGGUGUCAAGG`, the log2 enrichment was 0.0237.
For `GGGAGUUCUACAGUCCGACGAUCUGUGAAAGAAAACCGAAGUUUUAAAUGACUUCUCAUGGUUAUUUUUUUUCCUUUCUCUUGCAGGACAUUGGGGACACAUUGAGCAGGUAUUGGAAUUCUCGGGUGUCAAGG`, the log2 enrichment was -1.05.
With `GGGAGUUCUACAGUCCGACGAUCUGGGAGGUGGAUUUUGUUUAUUUUUUUAGCUCAUUUCCAGGGGUGGGAAUUUUUUUUUAAUAUGUGUCAUGAAUAAAGUGGUUUUUGAAAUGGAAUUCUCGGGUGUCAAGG` the log2 enrichment was 0.0035.
`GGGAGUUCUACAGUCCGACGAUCCACAGACAACAAGCACCCACACAGACACAGAGGGAAGGGGUUGGGAUGGGGACAGGGUGCACAGCAGGGCGGGGUAGGACCCCAGCCCCUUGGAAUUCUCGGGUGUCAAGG` has a log2 enrichment of 0.235.
`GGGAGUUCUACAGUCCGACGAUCGUCCUGUGCUACACAUCGUAUGUACCGAAUCAAACCCCCCCAAACCCCCAAAUUUAAAAAAGUAUUAUGUUACGCCGUUCGGAUCUGCACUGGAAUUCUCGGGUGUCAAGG` has a log2 enrichment of 0.275.

A few entries again (set 1):
Under “normalised enrichment score”, `PHLARPIKVESAP [P12A]` is recorded as -1.83.
`PHLARPIKVESPA [P13A]`: “normalised enrichment score” -0.705.
Under “normalised enrichment score”, `PHLARPIAVESPP [K8A]` is recorded as -0.268.
`PHLARPAKVESPP [I7A]`: “normalised enrichment score” -0.736.
`AHLARPIKVESPP [P1A]`: “normalised enrichment score” -0.352.
Under “normalised enrichment score”, `PHLARAIKVESPP [P6A]` is recorded as -0.452.
